Measured values of several laboratories.
Numbered parts are unrelated; each lists some results of a single study.

Set 1
Target: RING finger protein unkempt homolog, zinc fingers 1-6, GST-SBP tag (UNK, Homo sapiens, UniProt Q9C0B0, residues 30-357)
UniProt Q9C0B0, sequence (30-357, looked up): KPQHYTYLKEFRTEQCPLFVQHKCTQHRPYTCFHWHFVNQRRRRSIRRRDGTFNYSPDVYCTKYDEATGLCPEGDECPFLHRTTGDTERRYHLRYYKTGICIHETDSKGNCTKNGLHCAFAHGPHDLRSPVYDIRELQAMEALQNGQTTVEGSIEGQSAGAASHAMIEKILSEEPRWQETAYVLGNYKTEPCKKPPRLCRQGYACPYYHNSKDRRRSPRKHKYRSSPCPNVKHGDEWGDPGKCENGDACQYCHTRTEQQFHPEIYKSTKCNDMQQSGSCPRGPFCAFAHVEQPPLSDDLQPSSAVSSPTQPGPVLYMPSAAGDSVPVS
Technique: RNA Bind-n-Seq
Form: RNA
Medium: in vitro
Concentration: not given
Notes: RNA with constant flanks, human and mouse sites, ends assumed
Relative to: input RNA pool
Direction: higher = stronger binding
Measurement: bound/input enrichment
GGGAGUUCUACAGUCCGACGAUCCUAAGGGCUAAGGCCUCUUGCUGGUGCACAUGACAUUUGUCCUGCAGAGCUGGGGGGAAGGCGAUGUGGUGACCCCACCCCCACCCGUUAAUUUAAAGCUGUUUCUAAACAGUUGAGUUUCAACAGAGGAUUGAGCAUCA: 0.218 ratio
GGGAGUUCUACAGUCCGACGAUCUCCUUCUGUCCAGUUUUCAGCACUAGUCUUACUCAGCUAUCCAUUAUAGUUUUGCCCUUAAGAAGUCAUGAUUAACUUAUGAAAAAAUUAUUUGGGGACAGGAGUGUGAUACCUUCCUUGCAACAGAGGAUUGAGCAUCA: 0.41 ratio
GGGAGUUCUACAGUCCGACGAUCGAGGAAGAACAAGAAGAGAACCUUGAAGCAAGUGGAGACUAUAAAUAUUCAGGAAGAGAUAGUUUGAUUUUUUUGGUUGAUGCCUCCAAGGCUAUGUUUGAAUCUCAGAGUGAAGAUGAGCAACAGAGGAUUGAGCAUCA: 5.24 ratio
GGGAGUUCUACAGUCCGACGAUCCUUGGAGAAGGUCCAAAAGCUUCUUUGCAUGUGUCCAGUGGAUUUCCAUGGGAUCUUCCAGUUAGAUGAAAGACGGAGAGAUGCAGUGAUUGCAUUGGGCAUUUUUCUGAUUGAAUCUGACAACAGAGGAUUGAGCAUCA: 0.103 ratio
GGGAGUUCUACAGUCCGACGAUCGAAAGCCUGCAAGAAACCAAAGCUAGAGAUCUGGAAAUACAACAGGAACUAAAAACUGCUCGUAUGCUAUCAAAAGAACACAAAGAAACUGUUGAUAAACUUAGAGAAAAAAUUUCAGAACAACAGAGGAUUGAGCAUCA: 0.752 ratio
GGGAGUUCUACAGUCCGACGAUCUGCUUUUGCUAUAAGCAUUAUUGUAAGAGUAUCUCAAGCAGGGGUCGUUACAACCGUGAUUUGGAACAGGAUGAAGCAUUUAUUCCAGUAGGAGAAUCAUUGAAAGACCUGAUUGACCAGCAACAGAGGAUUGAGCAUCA: 0.169 ratio
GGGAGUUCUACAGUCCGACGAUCAUACAUGAUCUAGCAAGCCAAGCUGCCACCAUUUGCAGUCCAGAUUUUUUACUAGAUGCUUUAGAACUAUGUAAACAUACUUUAAUGGCUGUAGAGCUUUCCAGACAAUGCCAAAUGGAUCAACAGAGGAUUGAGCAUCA: 1.51 ratio
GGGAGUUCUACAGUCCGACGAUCAAGGUGGUUGAACAGGGUAUGUUUGUAAAGCACUGCAAAGUAGAAGUAUAUCUCACAGAAUUGAAGCUAUGUGAAAAUGGAAACAUGAAUAAUGUUGUAACUCGAAGAUUUAGCAAAGCUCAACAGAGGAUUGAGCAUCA: 0.742 ratio
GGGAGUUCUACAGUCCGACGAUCUUGCCCAUCAGGUUUAACCUUACUUACGUCAGCCACGAUGGCGAUGAUAAGAAAAGGCCAGUGAUUGUUCACAGAGCCAUCCUGGGGUCGGUGGAAAGAAUGAUUGCCAUCCUCACAGAACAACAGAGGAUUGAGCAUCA: 0.131 ratio
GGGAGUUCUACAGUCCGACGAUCACAGUUGUGCCACAAGUGCCCACCUCUCCCAAAUCCAGCCUUAGUGUCCAGCCUGGAUUCCUGGCUGACCUCAACAGGACACUGCAACGAAAGUCCAUCACUCGGCACGGCUCACUCUCCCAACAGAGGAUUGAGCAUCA: 0.154 ratio
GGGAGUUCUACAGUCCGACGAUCCCUCUUGCUCUAGAUAACAUACAUUUAGAGAAGCCUCAGUAUAAAGAAGAUGGAAAAUUGCAACUUGUUGGUGAUGUAAUUGAUUUGCGUACAGUACCAAAGGUAGAAGUUAAAACAACUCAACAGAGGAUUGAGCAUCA: 0.264 ratio

Set 2
Target: Eukaryotic initiation factor 4A-I (EIF4A1, Homo sapiens, UniProt P60842, residues 1-406, full length assumed)
UniProt P60842, sequence (whole entry, looked up): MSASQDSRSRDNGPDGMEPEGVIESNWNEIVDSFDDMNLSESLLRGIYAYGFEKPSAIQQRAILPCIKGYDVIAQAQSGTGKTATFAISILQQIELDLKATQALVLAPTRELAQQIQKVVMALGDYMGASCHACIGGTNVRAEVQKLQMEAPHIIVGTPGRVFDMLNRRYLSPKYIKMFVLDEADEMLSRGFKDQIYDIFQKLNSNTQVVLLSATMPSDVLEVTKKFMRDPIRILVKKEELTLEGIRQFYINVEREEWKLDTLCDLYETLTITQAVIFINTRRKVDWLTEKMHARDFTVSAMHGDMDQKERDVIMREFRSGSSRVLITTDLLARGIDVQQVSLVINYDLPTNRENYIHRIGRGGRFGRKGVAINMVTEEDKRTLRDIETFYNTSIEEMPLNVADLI
Technique: RNA Bind-n-Seq
Form: RNA
Medium: in vitro
Concentration: 90 pmol
Notes: 4-mer, random 30-nt RNA, single round
Together with: 3 µM iPr-DMDA-PatA, 2 mM ADP, 2 mM phosphate
Relative to: input library
Direction: higher = stronger binding
Measurement: 4-mer enrichment
UUCG: 0.944 fold
CUCC: 0.92 fold
GCGU: 0.761 fold
CGUG: 0.743 fold
GUAG: 0.952 fold
AAAC: 1.46 fold
ACAA: 1.35 fold
GAGU: 1.09 fold
AAUA: 1.53 fold
CCUA: 1.03 fold
AUAC: 1.27 fold
CGUC: 0.853 fold
GGCC: 0.61 fold
GGCG: 0.629 fold
UAGA: 1.36 fold

Set 3
Target: Phosphate system positive regulatory protein PHO4, full length, GST-tagged (PHO4, Saccharomyces cerevisiae, UniProt P07270, residues 1-312)
Technique: competition protein-binding microarray
Form: double-stranded DNA, one strand shown
Medium: in vitro
Concentration: 2 µM
Notes: whole 60-bp probe, lowest competitor level
Together with: Cbf1 competitor, 0.05 µM
Direction: higher = stronger binding
Measurement: fluorescence intensity
Residues (chain): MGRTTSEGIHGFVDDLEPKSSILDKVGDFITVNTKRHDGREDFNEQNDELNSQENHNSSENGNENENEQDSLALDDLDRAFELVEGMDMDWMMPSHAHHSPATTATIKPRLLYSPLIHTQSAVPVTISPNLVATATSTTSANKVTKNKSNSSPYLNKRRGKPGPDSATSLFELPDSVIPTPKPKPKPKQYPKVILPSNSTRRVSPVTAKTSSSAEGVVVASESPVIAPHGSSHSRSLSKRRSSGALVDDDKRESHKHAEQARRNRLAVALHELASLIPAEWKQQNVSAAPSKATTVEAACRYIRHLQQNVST
TGCATATTCGTCAGTGACGTGCAAAATTCTTTTGAAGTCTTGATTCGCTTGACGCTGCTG: 4430 a.u.
CGTCCTAGCGATTGAGGAGTGGGTGCCATGAGGAAGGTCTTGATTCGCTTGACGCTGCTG: 6020 a.u.
TTTACTTAGAACGACCACGTTACGATCTTTAGTTCCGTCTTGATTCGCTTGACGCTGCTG: 9530 a.u.
CTTTCCCGATCTTGCCATGTGGGTGTAGCACATTTGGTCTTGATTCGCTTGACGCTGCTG: 11400 a.u.
ATATCCCGCGCTTTTCCCGTGGTGAATACTGTGTGTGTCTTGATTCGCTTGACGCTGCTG: 6090 a.u.
AGCGAGTTCACCCGTCACGTGCAAAGAGAACTCACAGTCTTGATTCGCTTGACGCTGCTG: 15900 a.u.
CATACCCAACCTTGTGTAGTGGGTGAAGATATTTGTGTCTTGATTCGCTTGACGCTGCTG: 5030 a.u.
ATTGAGAAGTATAACGACACCCAGTGGACCTCGGGTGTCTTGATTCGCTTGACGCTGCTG: 3990 a.u.
TTGAGTTTCCCTCACTTCGTGATGGGCGTTAACGTCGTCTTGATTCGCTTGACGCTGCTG: 3790 a.u.
AGGTGCCTTAAAGAACACGCGGACACACTTGTTTGGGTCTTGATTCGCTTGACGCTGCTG: 10900 a.u.
CTTTCCCGATCTTGGCAGGTGGGTGTAGCACATTTGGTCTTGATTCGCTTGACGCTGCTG: 8070 a.u.
TCGGGCTCCGTTTCGTCCGTGGGTACTCCAGCAGATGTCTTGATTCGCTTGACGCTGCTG: 4960 a.u.
AAATCCGTCCTGAAACCCGTGCTAAAATCCGTTTACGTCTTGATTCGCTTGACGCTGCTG: 11400 a.u.
CAACACTGGCGGGTCCACGTGTTGGCTAGCCTCACCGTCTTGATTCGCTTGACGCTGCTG: 14600 a.u.
AAAACATCAAAACTACACGTTTGGGTGGTACGGAGGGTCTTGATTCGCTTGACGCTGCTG: 9270 a.u.
CTAACGAAGGTTTGCGCGGTGGGTGACAAGCCAAGTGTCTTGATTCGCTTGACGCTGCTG: 3800 a.u.
GTCTTGTCTCATTGGCAGGTGGGTGTCCCCACTTCAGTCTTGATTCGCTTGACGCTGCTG: 6650 a.u.
CAATCTGCGAATGCATCCGTGCCAGAATGAAACGGCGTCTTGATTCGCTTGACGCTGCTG: 5950 a.u.
CACCGGATATTGAATCACATGGGCTTTCAGATTTCAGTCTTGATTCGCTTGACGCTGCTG: 9070 a.u.
TTCATCGAATGCTTGCGCATGCCAATGCACAGACAAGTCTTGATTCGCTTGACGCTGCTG: 8170 a.u.
CGGGGTTAAGTTTGTAAGGTGGGTGGCTTGCAGCAGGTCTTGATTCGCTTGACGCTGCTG: 5110 a.u.
TGCGCAACAACTTGGACAGTGGGTGTATGTCTAGAAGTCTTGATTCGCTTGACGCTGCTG: 4610 a.u.
CATACCCCTCAGTTCCACGGGGTAAAAAAAAAACTTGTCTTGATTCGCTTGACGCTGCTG: 7490 a.u.
AATCTCCACTTTACCAATGTGACAGTCTAGACAAGCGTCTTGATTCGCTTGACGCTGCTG: 4640 a.u.
CGGGGTTAAGTTTGTCGGGTGGGTGGCTTGCAGCAGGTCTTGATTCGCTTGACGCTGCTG: 3990 a.u.

Set 4
Target: RNA binding protein fox-1 homolog 2, RRM domain, GST-SBP tag (RBFOX2, Homo sapiens, UniProt O43251-10, residues 100-194)
Technique: RNA Bind-n-Seq
Form: RNA
Medium: in vitro
Concentration: 365 nM
Notes: natural RNA segment, single round, ends assumed
Relative to: no-protein control
Direction: higher = stronger binding
Measurement: RBNS enrichment (R)
Residues (chain): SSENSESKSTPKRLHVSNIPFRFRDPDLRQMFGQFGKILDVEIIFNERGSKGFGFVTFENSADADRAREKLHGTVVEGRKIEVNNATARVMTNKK
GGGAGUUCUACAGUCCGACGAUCCCCCCAGCCUGCAGCAGAAGCCUCCACAGUGAGAACUGGACCCAAAGGUAGUGGGGGCCGGUGUGGGGCAGAGUCCUGAAGAGCCACCUCUAGGAGGCAGCCCCUAGGAGUGGAAUUCUCGGGUGCCAA: 0.774
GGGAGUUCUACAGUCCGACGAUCUCAGGUCAGGUGGCCCACCACCCUCUGGAAGCCAGGUGCCCACCCCACCUCCAGCUCUGCUGGCAAUCUCCCUCCCCCAAGGCAAACUGGCCAGCAGGAGUGCUUCACAGUGGAAUUCUCGGGUGCCAA: 0.301
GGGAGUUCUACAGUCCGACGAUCUUUUCCUCAGGCUCCAACAACUGUGCUUAUACCAAGCAGAUCCUCAUCCUCCAUAUAAUCAUCUUUGUUAUUCGUGGGGGUUUAAUUACAUUACAAGUGGCCAAAACCCCUGGAAUUCUCGGGUGCCAA: 0.268
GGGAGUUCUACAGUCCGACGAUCCCAUCCACAGUUGUCAGUUGUGAAGAGGGGCCAGAUGACACCCUAAAGCAGGCUGAUCGGGCAAUGGGAGGUGGCCAGGCCUGCCAGCCCCUCGGCUCUGCCGCGGUGGGUGGAAUUCUCGGGUGCCAA: 0.467
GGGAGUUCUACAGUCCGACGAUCCAACUUCGGAAGAUGCAGUUGUACGUGGCUAUUCCAUUCCUAAAGGCACAACAGUCAUUACAAAUCUUUAUUCUGUUCACUUUGAUGAAAAGUACUGGAAAGAUCCAGACUGGAAUUCUCGGGUGCCAA: 0.271
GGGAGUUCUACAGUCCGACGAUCUACAGGAGCCAGACGCCAGGGCCUGCCCGGCCUCCUGUUCCUGCCCCCACCCACCACCUGCCUGGAGAGGAACGGGUCGGGUCCGUGUCGGAGAAGUGACAGGUCCCAGAUGGAAUUCUCGGGUGCCAA: 0.474
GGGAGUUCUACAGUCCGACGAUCACCUGCCCCCAGAGCUGAGGCCAUCUGCAAGCCCCUGCCCAUGGCCCAAUGGGGAGCCUCCAGCCACAAGUUCCCUGUCCUUAUCAGCCACUGGGUGGUUCCCACUGCAUUGGAAUUCUCGGGUGCCAA: 0.463
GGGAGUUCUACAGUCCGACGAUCGGGUGUUCACCAUGAUAACCUAGUGCCUCCAUAGAGGGGUUUGGAAAAAUUCCAGUCCGAUUUCUUUGUGUGUCAGCUGACUUCCUUAGCUGAUUGUUCCCACUUGCACCUGGAAUUCUCGGGUGCCAA: 0.276
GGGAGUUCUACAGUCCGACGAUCUGGCAGAUUUGGGGCGCCAACCUGAUUUUAUGGAUUUUGAGUUAGAUUCUCUACCCUCUAUCAAUACUAAAAAUAGAUUAGGAGGGUUUUUUUUUCUGUUUAUCAUGUUGUGGAAUUCUCGGGUGCCAA: 0.332
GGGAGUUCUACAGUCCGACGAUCUUCCUAGCAUAUGUGAGCGCUCCAUUGGCUCAGCACAGACACUAAUAAAGACAUGAUUGGCCCCAGACUGGCUUUGCUUGUUUUGUUCCUCCAGGAUGUUUCCUUGAGACUGGAAUUCUCGGGUGCCAA: 0.677
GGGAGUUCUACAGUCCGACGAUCAUUUAUGUAUUUUGUAUUCAAUGUGAGGCUUAUUAAAAAUAGUGAUUCUAAUGUAAGAAUCAGCUAAGAUGCAUUAUAUAUAUUUUAAUUAAAAUUAAAACUUCAGAUAUUGGAAUUCUCGGGUGCCAA: 0.75
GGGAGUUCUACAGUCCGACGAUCAACAAGUCCCGCAAACCGGGGACGGAAGGACAUUUGACUUUUAUUUUUGUAUUUAAUUGACAUGAAUGUAAAGGGGACAGCUCAGGGUUGUUUUGGAGCCUGUUGACUUUUGGAAUUCUCGGGUGCCAA: 0.798

Some of these lines once more (set 2):
UUCG: 0.944 fold
CUCC: 0.92 fold
GCGU: 0.761 fold
CGUG: 0.743 fold
GUAG: 0.952 fold
AAAC: 1.46 fold
ACAA: 1.35 fold
GAGU: 1.09 fold
AAUA: 1.53 fold
CCUA: 1.03 fold
